Published values from different studies.
Each numbered part is a random draw from the data of one study; scales do not carry over between parts. Positions count from the first letter of the parent shown.

Set 1
Target: ABI1, truncated, D143A, DHFR fusion (Arabidopsis thaliana)
Technique: DHFR PCA, deep sequencing
Medium: yeast
Setting: methotrexate growth selection, single substitutions
With: (+)-ABA 0 µM
Reference: wild-type fitted maximum
Reading: higher = stronger binding
Parent: PYL1, truncated, DHFR fusion (Arabidopsis thaliana); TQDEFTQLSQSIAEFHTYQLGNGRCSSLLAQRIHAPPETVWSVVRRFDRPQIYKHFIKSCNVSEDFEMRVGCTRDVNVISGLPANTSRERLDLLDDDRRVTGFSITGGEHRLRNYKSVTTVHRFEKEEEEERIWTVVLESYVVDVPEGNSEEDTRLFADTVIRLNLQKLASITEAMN; partner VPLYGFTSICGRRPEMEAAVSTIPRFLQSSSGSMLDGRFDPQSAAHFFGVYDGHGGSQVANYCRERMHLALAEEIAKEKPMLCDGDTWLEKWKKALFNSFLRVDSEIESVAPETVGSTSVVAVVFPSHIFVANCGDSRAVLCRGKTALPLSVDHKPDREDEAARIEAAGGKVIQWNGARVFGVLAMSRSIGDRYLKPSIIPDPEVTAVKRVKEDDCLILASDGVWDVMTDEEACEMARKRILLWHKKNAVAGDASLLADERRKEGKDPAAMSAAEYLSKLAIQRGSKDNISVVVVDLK
Under “relative binding score”, `E67P` is recorded as 1.85%.
Under “relative binding score”, `I133N` is recorded as 39.4%.
`D65S` — result for “relative binding score”: 8.94%.
For `C72I`, “relative binding score” read 9.51%.
For `L94A`, “relative binding score” read -4.95%.
Under “relative binding score”, `G108M` is recorded as -0.032%.
Under “relative binding score”, `L20R` is recorded as 23.5%.
For `Q10W`, “relative binding score” read -1.23%.
Under “relative binding score”, `W41Q` is recorded as -1.07%.
`I33T` — result for “relative binding score”: 3.31%.
`T120K`: “relative binding score” -2.9%.
For `H34I`, “relative binding score” read -2.95%.
`T17I` — result for “relative binding score”: -3.8%.
`V62L` — result for “relative binding score”: 17.7%.
Under “relative binding score”, `L94W` is recorded as 2.82%.

Set 2
Target: RING finger protein unkempt homolog, zinc fingers 1-6, SBP tag (UNK, Homo sapiens, UniProt Q9C0B0, residues 30-357)
UniProt Q9C0B0, sequence (30-357, looked up): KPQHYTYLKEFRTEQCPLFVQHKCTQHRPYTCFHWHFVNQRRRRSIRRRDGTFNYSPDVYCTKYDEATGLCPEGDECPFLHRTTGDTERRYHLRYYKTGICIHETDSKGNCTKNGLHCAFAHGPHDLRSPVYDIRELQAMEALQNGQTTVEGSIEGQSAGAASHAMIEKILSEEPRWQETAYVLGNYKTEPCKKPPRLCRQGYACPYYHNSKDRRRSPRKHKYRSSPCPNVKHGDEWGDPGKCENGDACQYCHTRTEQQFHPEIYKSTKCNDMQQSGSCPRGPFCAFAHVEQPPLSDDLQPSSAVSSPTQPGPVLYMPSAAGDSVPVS
Technique: RNA Bind-n-Seq
Form: RNA
Medium: in vitro
Tested at: 100 nM
Setting: RNA with constant flanks, vertebrate orthologous sites, ends assumed
Reference: input RNA pool
Reading: higher = stronger binding
With `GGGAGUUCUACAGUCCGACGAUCUGUAUGUAGAGAAAAAUUUUCAUUGCUCCCCACCAUCGUGAAAUUCUCUAGCAAUUUAUUUAGAAUCUUAAUUUUUCUAAUUCAAGCACACUGUAUUAGUCAUUUUUAGCCCAUAAUUAACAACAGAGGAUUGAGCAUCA` the bound/input enrichment was 1.65 ratio.
For `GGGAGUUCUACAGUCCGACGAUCUAUAAGAACUCUUGAAGUCUUAGGGGUUAUAAAAAUAUAUAUCUGAAUUGUAAGAGCUGUUAGCACAGUUUUUUUUUUUUUUUUUUUUAAGCACUUGUUUGGGUACAAGGCAUUUCUGAACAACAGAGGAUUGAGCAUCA`, the bound/input enrichment was 1.75 ratio.
`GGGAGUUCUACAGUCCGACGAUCAUCAUCUGACUGGAUGAAGACUGUCCCGAGUUACAGCCAAACCAAUAGCUCCAUGGACUUCAGAAAUUACAUGAUGAGAGAUGAGAAUCUGGAACCACUGCCCCCAAACUGGGAGAUGGCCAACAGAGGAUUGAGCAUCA` has a bound/input enrichment of 0.276 ratio.
With `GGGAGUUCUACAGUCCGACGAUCGUCAUCUGACUGGAUGAAGACUGUUCCAAGUUAUAACCAAACAAAUAGCUCCGUGGACUUUAGAAAUUAUAUGAUGAGAGAUGAGACUCUGGAACCACUACCUAAAAACUGGGAGAUGGCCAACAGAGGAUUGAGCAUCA` the bound/input enrichment was 1.12 ratio.
With `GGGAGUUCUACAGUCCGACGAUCAAUUUUCUCACUUUAGGUACCAUUGCCCAAUGCCCAAGAUCUUUUAUGUUCAGCUGACUGUAGGAAAUAAUGAAUUUUUUGGGGAAGGAAAGACUCGACAAGCCGCUAGACACAACGCCGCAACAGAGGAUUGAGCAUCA` the bound/input enrichment was 0.964 ratio.
With `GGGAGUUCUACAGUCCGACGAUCGUUGUGACCCAUUUAACAUACACAAAAAACUAGCCAAAAAAAAUUUACAUGUAAUUGACUUAGAUGAUGCCACUUUCCUGAGUGCAAAAUUUGGAAGACAGCUUGUACCUGGUUGGAAGCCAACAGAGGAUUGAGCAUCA` the bound/input enrichment was 2.45 ratio.
For `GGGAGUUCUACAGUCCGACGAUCCAAUAAAAUUGGAUGAAAUUUAUAAACAAUUCAAGGCAGUGACUUAAACUUCAUAAAGUAUUGUUGGUUUUUAAGUGGUUUACCUUUAUUUAAGCUGCUACCCUUUGUUAAAUAUGUGGACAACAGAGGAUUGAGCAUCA`, the bound/input enrichment was 0.25 ratio.
For `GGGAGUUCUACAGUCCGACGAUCUUCCGCCCUCUCAUGACAGGGAGUGGGGGGAGCCCAGAACGACCCUCAACUGUUCCAAUCUAGUUGUUUUGUUUUGUUUGUUUUUUUUAAAUGACUGUAUUUAUUAUGACGAAGGUGAUUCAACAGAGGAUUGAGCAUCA`, the bound/input enrichment was 0.707 ratio.

Set 3
Target: UBE2S UBC core domain (UniProt Q16763)
Technique: yeast two-hybrid
Medium: yeast
Setting: mostly zero background
Reference: not given
Reading: higher = stronger interaction
B1: TRIM31 RING domain (UniProt Q9BZY9); chain FVNKLQEEVICPICLDILQKPVTIDCGHNFCLKCITQIGETSCGFFKCPLCKTSVRKNAIRF
B2: RNF122 RING domain (UniProt Q9H9V4); chain AKKLQLYGQTCAVCLEDFKGKDELGVLPCQHAFHRKCLVKWLEVRCVCPMCNKPIASPSEAT
B3: RNF183 RING domain (UniProt Q96D59); chain EQQGRELEAECPVCWNPFNNTFHTPKMLDCCHSFCVECLAHLSLVTPARRRLLCPLCRQPTVLASGQP
Residues (chain): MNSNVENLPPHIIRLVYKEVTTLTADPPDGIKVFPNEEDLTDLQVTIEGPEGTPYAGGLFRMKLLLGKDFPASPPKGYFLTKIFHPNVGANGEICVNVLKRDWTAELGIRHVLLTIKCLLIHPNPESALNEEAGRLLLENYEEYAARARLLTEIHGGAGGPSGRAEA
`B1 (TRIM31 RING domain)`: “lacZ reporter activity” 0.
`QVQSRTKIEECVVCSDKKAAVLFQPCGHMCACENCANLMKKCVQCRAVVERRVPFI (MIB1 RING domain (UniProt Q86YT6))` — result for “lacZ reporter activity”: 0.
For `FVKTVEDKYKCEKCHLVLCSPKQTECGHRFCESCMAALLSSSSPKCTACQESIVKDKVF (TRAF3 RING domain (UniProt Q13114))`, “lacZ reporter activity” read 0.
For `LGTKLEAKYLCSACRNVLRRPFQAQCGHRYCSFCLASILSSGPQNCAACVHEGIYEEGIS (TRAF2 RING domain (UniProt Q12933))`, “lacZ reporter activity” read 0.
For `B2 (RNF122 RING domain)`, “lacZ reporter activity” read 0.
Under “lacZ reporter activity”, `MNDVLENELQCIICSEYFIEAVTLNCAHSFCSYCINEWMKRKIECPICRKDIKSKTYSL (RNF8 RING domain (UniProt O76064))` is recorded as 0.
Under “lacZ reporter activity”, `B3 (RNF183 RING domain)` is recorded as 0.

Set 4
Target: CCNE2, cyclin fold, Cln2 fusion (human)
Technique: yeast growth competition, sequencing
Medium: yeast
Setting: strong parent motif
Reference: not given
Reading: higher = stronger binding
Parent: INSM1 docking peptide (human); PKAIRKLHFEDEV
`PKCIRKLHFEDEV [A3C]` — result for “normalised enrichment score”: 2.07.
`PRAIRKLHFEDEV [K2R]`: “normalised enrichment score” 1.61.
Under “normalised enrichment score”, `PKVIRKLHFEDEV [A3V]` is recorded as 2.19.
For `PKAIMKLHFEDEV [R5M]`, “normalised enrichment score” read 0.218.
`PKAIRKLHFEDFV [E12F]`: “normalised enrichment score” 2.15.
`PKAIRKLHFEDMV [E12M]` — result for “normalised enrichment score”: 2.28.
For `PIAIRKLHFEDEV [K2I]`, “normalised enrichment score” read 0.625.
For `PKAIRKLPFEDEV [H8P]`, “normalised enrichment score” read 0.687.
`PKAIRKCHFEDEV [L7C]`: “normalised enrichment score” 0.389.
For `PKAIEKLHFEDEV [R5E]`, “normalised enrichment score” read -0.129.
`PKAIRKLHFEDTV [E12T]`: “normalised enrichment score” 2.11.
Under “normalised enrichment score”, `PKAIRWLHFEDEV [K6W]` is recorded as 0.756.
`PKAIRKLGFEDEV [H8G]`: “normalised enrichment score” 0.431.
`PSAIRKLHFEDEV [K2S]`: “normalised enrichment score” 2.11.
`PKAIRKLHFEDHV [E12H]` — result for “normalised enrichment score”: 2.02.
For `PKAGRKLHFEDEV [I4G]`, “normalised enrichment score” read 0.0545.
For `PKALRKLHFEDEV [I4L]`, “normalised enrichment score” read 0.437.
Under “normalised enrichment score”, `PKYIRKLHFEDEV [A3Y]` is recorded as 1.29.
`PKAIRKLHFEDQV [E12Q]` — result for “normalised enrichment score”: 1.41.
Under “normalised enrichment score”, `PKAIRKVHFEDEV [L7V]` is recorded as 0.203.
For `PKAIRKLHFEFEV [D11F]`, “normalised enrichment score” read 1.5.
`PKAIQKLHFEDEV [R5Q]`: “normalised enrichment score” 0.0718.
Under “normalised enrichment score”, `PKAIRKYHFEDEV [L7Y]` is recorded as -0.113.
`PKAIRKLHFELEV [D11L]` — result for “normalised enrichment score”: 1.38.
`PKAIRKLHFEYEV [D11Y]` — result for “normalised enrichment score”: 1.53.
